Results pooled from the literature.
Numbered parts are unrelated; each lists some results of a single study. Changes are numbered by the printed parent chain.
UniProt P30291, sequence (whole entry, looked up): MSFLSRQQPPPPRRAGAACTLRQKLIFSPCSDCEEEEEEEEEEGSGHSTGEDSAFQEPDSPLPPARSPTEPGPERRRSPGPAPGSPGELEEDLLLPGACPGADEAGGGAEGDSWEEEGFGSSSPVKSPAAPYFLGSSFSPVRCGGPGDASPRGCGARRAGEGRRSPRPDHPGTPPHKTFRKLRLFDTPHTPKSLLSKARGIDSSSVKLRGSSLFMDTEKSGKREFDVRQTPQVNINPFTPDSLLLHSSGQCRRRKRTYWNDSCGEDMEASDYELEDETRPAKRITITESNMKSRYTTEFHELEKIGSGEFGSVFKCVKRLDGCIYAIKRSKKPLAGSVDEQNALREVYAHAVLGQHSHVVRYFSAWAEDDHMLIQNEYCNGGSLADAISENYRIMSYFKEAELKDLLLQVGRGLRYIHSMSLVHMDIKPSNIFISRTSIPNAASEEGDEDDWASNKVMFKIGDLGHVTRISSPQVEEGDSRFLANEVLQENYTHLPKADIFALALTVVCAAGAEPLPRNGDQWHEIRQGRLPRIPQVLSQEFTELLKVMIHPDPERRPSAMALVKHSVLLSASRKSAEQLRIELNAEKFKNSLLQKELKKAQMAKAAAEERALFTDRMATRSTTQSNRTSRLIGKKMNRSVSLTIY
UniProt Q96PY6, sequence (whole entry, looked up): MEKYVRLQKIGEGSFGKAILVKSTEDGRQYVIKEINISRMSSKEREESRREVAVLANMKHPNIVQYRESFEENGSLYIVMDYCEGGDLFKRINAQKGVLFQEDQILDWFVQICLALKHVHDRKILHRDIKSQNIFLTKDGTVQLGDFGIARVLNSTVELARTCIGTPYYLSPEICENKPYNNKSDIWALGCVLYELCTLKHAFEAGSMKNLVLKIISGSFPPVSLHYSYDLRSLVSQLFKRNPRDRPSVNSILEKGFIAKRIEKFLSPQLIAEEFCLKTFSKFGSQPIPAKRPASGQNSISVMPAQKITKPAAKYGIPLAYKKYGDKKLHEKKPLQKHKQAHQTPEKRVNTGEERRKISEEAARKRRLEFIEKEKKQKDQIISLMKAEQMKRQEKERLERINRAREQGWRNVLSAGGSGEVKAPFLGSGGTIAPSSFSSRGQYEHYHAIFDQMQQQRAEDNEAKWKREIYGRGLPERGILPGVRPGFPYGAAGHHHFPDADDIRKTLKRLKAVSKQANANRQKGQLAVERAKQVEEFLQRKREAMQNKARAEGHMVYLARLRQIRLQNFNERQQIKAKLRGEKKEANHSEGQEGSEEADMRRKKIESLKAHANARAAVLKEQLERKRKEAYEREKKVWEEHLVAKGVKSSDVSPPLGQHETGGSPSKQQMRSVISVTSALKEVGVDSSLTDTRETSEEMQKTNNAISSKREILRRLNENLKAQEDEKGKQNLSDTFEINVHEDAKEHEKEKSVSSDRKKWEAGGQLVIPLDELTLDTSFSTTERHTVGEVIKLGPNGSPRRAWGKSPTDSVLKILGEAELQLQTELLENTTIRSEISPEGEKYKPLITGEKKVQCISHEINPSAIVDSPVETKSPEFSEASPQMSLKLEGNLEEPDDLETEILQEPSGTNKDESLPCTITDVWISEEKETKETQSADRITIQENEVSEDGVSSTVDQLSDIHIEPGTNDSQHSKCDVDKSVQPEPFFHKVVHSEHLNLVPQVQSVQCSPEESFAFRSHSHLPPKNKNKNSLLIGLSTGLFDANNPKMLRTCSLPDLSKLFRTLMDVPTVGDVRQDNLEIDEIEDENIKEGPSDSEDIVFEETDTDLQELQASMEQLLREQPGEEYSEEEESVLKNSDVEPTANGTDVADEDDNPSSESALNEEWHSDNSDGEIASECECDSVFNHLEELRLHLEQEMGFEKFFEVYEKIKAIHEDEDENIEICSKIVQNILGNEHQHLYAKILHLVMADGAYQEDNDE
UniProt Q6PHR2, sequence (whole entry, looked up): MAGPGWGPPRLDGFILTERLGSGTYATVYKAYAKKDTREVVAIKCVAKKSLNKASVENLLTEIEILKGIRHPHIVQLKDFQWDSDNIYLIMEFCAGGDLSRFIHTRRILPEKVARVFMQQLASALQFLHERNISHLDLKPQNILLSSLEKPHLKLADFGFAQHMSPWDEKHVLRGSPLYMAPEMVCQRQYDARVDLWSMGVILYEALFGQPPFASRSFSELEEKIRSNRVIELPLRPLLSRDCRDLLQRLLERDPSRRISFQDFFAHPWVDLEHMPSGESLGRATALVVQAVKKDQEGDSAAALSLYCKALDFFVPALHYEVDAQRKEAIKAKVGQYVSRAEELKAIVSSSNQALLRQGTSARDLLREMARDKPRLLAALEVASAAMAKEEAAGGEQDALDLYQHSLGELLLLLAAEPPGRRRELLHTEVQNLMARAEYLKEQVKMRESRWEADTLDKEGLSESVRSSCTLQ
UniProt Q99558, sequence (whole entry, looked up): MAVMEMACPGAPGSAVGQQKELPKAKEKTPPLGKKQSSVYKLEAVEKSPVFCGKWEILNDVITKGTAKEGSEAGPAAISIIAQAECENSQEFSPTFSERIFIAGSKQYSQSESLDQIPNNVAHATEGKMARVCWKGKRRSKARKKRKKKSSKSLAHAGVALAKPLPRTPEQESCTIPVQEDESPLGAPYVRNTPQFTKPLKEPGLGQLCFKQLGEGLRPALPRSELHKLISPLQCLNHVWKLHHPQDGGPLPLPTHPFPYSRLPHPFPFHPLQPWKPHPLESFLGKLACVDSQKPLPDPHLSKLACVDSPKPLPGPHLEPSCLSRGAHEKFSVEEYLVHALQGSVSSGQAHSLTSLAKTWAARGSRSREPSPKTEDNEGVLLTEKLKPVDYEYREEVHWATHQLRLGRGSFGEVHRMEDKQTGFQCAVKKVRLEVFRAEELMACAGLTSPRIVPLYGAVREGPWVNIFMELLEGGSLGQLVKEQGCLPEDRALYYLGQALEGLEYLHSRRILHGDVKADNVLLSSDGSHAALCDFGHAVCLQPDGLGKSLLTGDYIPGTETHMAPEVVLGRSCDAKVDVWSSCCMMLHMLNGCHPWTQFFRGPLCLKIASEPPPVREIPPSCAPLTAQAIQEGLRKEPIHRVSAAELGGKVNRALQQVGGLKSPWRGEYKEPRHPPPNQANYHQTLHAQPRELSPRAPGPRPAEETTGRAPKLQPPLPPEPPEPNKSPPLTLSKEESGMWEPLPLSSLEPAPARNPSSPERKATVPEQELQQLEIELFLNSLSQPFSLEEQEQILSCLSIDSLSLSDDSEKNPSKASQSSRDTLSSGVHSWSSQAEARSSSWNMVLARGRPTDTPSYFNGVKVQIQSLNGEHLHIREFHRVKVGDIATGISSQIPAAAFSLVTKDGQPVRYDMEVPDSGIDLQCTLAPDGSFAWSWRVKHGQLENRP
UniProt P54764, sequence (whole entry, looked up): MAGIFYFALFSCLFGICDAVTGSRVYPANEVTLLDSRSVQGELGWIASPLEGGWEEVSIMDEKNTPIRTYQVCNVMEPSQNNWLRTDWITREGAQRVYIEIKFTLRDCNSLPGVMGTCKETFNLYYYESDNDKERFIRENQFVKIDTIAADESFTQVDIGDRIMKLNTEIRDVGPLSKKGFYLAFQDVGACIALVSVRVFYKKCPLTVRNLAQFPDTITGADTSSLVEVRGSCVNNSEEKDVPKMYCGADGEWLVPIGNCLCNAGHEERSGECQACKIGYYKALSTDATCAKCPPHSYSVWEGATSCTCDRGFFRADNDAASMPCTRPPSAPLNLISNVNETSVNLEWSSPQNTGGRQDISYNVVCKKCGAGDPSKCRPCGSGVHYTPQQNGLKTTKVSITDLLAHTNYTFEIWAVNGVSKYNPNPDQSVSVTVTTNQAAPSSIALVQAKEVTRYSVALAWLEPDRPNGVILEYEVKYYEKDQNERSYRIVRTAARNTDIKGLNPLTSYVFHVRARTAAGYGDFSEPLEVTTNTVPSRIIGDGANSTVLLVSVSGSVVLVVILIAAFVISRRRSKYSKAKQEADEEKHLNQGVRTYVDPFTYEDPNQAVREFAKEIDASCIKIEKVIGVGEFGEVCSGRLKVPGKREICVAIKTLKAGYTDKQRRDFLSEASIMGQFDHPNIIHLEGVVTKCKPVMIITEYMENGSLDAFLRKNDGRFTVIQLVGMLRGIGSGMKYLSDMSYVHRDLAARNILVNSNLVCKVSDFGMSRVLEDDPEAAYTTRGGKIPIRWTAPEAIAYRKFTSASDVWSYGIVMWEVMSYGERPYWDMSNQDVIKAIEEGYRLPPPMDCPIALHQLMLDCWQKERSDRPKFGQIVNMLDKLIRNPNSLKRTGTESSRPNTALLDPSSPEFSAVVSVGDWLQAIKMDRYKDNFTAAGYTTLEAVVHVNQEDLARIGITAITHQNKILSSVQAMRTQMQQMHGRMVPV
UniProt P49137, sequence (whole entry, looked up): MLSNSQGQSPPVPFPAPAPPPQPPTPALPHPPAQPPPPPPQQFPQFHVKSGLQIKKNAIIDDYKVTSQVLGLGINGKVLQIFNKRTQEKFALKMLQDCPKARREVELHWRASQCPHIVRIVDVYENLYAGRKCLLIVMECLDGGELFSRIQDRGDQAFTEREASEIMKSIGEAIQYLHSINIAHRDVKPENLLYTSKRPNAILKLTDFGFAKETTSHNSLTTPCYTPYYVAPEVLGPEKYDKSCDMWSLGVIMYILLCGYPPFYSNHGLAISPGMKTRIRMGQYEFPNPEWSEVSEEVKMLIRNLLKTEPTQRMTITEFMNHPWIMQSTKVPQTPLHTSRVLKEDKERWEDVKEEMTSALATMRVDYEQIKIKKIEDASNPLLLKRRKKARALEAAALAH

Set 1
SMILES: CSc1nc(-c2ccnc(N[C@@H](C)c3ccccc3)c2)c(-c2ccc(F)cc2)[nH]1 (racemic)
Read-out: enzyme activity
Mode: inhibitor
Tested at: 0.5 µM
Reference: control
Endpoint: remaining activity
target = Dual specificity mitogen-activated protein kinase kinase 2 (MAP2K2, Homo sapiens, UniProt P36507); result = 78.6%
target = Ribosomal protein S6 kinase alpha-2 (RPS6KA2, Homo sapiens, UniProt Q15349); result = 94.3%
target = Fibroblast growth factor receptor 3 (FGFR3, Homo sapiens, UniProt P22607); result = 83.7%
target = Tyrosine-protein kinase Mer (MERTK, Homo sapiens, UniProt Q12866); result = 93.1%
target = Serine/threonine-protein kinase TBK1 (TBK1, Homo sapiens, UniProt Q9UHD2); result = 92%
target = Mitogen-activated protein kinase kinase kinase 14 (MAP3K14, Homo sapiens, UniProt Q99558); result = 127%
target = Tyrosine-protein kinase Lck (LCK, Homo sapiens, UniProt P06239); result = 102%
target = Tyrosine-protein kinase JAK3 (JAK3, Homo sapiens, UniProt P52333); result = 98.5%
target = Serine/threonine-protein kinase Nek1 (NEK1, Homo sapiens, UniProt Q96PY6); result = 86.3%
target = Tyrosine-protein kinase FRK (FRK, Homo sapiens, UniProt P42685); result = 100%
target = MAP kinase-activated protein kinase 2 (MAPKAPK2, Homo sapiens, UniProt P49137); result = 106%
target = Wee1-like protein kinase (WEE1, Homo sapiens, UniProt P30291); result = 76.1%
target = Serine/threonine-protein kinase ULK3 (ULK3, Homo sapiens, UniProt Q6PHR2); result = 85.3%
target = Fibroblast growth factor receptor 1 (FGFR1, Homo sapiens, UniProt P11362); result = 97.6%

Set 2
Target: CCND3, cyclin fold, Cln2 fusion (human)
Technique: yeast growth competition, sequencing
Matrix: yeast
Notes: weak parent motif
Reference: not given
Direction: higher = stronger binding
Endpoint: normalised enrichment score
Parent: SLBP docking peptide (human); ARYKRKLLINDFG; partner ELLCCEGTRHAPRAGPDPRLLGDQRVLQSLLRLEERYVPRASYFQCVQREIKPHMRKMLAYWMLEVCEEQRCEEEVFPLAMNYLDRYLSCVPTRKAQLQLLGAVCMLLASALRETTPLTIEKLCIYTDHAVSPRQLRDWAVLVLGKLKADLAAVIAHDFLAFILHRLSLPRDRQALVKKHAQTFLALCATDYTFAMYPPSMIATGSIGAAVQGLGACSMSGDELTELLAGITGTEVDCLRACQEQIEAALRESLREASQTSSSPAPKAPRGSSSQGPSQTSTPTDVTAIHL
Change = ARYKRKLLISDFG [N10S]; result = 0.176
Change = ARYKRKLLINDFW [G13W]; result = 0.0275
Change = ARDKRKLLINDFG [Y3D]; result = 0.0876
Change = ARYKRKLLINDFF [G13F]; result = 0.11
Change = ARYKRKLHINDFG [L8H]; result = 0.106
Change = ARYKRKLLINDFN [G13N]; result = 0.107
Change = HRYKRKLLINDFG [A1H]; result = 0.0919
Change = ARYKRKTLINDFG [L7T]; result = 0.106

Set 3
Structure (SMILES): CCC(=O)N[C@H]1CC[C@@H](C(=O)N(C)c2ccc(-c3nc4ccccc4o3)cc2)C1
Read-out: cell-free assay
Technique: competition with immobilised ligand
Tested at: 1 µM
Endpoint: remaining binding
target = Protein kinase C epsilon type (PRKCE, Homo sapiens, UniProt Q02156); result = 90%
target = Dual specificity mitogen-activated protein kinase kinase 1 (MAP2K1, Homo sapiens, UniProt Q02750); result = 89%
target = Myosin light chain kinase, smooth muscle (MYLK, Homo sapiens, UniProt Q15746); result = 69%
target = eIF-2-alpha kinase GCN2, C-terminal kinase domain (EIF2AK4, Homo sapiens, UniProt Q9P2K8, S808G); result = 100%
target = Serine/threonine-protein kinase B-raf (BRAF, Homo sapiens, UniProt P15056, V600E); result = 96%
target = Calcium/calmodulin-dependent protein kinase type II subunit gamma (CAMK2G, Homo sapiens, UniProt Q13555); result = 95%
target = Leucine-rich repeat serine/threonine-protein kinase 2 (LRRK2, Homo sapiens, UniProt Q5S007, G2019S); result = 100%
target = Calcium/calmodulin-dependent protein kinase type 1G (CAMK1G, Homo sapiens, UniProt Q96NX5); result = 100%
target = Phosphatidylinositol 4,5-bisphosphate 3-kinase catalytic subunit beta isoform (PIK3CB, Homo sapiens, UniProt P42338); result = 100%
target = Ephrin type-A receptor 4 (EPHA4, Homo sapiens, UniProt P54764); result = 79%

Further values, each from its own experiment
Target: SMN1, full length (human, UniProt Q16637, residues 1-294)
UniProt Q16637, sequence (whole entry, looked up): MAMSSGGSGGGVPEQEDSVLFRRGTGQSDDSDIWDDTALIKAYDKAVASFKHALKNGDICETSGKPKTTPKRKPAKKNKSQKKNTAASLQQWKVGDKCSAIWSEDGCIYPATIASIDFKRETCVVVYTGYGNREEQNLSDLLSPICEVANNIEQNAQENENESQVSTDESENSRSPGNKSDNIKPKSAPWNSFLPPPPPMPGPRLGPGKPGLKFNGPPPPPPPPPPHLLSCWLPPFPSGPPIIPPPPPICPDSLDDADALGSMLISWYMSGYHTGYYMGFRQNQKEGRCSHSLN
Technique: nitrocellulose filter binding
Form: RNA
Matrix: in vitro
Tested at: 100 nM
Notes: whole RNA, constant flanks, single concentration, ends assumed
Reference: round 9 selected pool
Direction: higher = stronger binding
Strand = GGGCUCACCACGCACUUGCCAGUUUCAUUGCCAUGUAUGGGGCCUCACCACGGCAAGCU; relative RNA binding = 34 % of pool
Strand = GGGCUCACCACGCACCGUGGUCGAUUUUUGCGUUCGUGUGCCUCACCACGGCAAGCU; relative RNA binding = 53 % of pool

A few entries again (set 3):
target = Protein kinase C epsilon type (PRKCE, Homo sapiens, UniProt Q02156); result = 90%
target = Serine/threonine-protein kinase B-raf (BRAF, Homo sapiens, UniProt P15056, V600E); result = 96%
target = Myosin light chain kinase, smooth muscle (MYLK, Homo sapiens, UniProt Q15746); result = 69%
